Measured values pooled from the literature.
Compare with care: the assays were run in different laboratories. ± marks the error that the study gave.

O=C(NCCCN1CCOCC1)c1ccc(Nc2ncc(Cl)c(-c3ccc(Cl)s3)n2)cc1  EC50 (Plasmodium berghei; liver stage parasite load, luciferase; HepG2, ANKA; 44 h post-infection): 3400 nM
Cn1cc(-c2ccc(-c3cncc(Cl)c3N3CCC4(CCNC4=O)CC3)cc2)cn1  log2 fold change (COLO 205; gene expression, microarray, measured: STC1 mRNA; concentration not given, 6 h; reference: untreated cells): 2.14
O=c1[nH]c(=O)c2ncn([C@@H]3O[C@H](COP(=O)(O)O)[C@@H](O)[C@H]3O)c2[nH]1  log2 fold change (binding, MIDAS equilibrium dialysis LC-MS; A2AR-BRIL thermostabilized; concentration not given; reference: no-protein control): -0.134
O=C(NCCN1CCCC1)c1cc(-c2ccc(CN3CCOCC3)cc2)nc2ccc(F)cc12  EC50 (Plasmodium berghei; checkerboard model fit; HepG2 spheroids): 3.58 nM
Cc1cc(OC(C)C)ccc1C(=O)C(C)(C)NC(=O)c1sccc1C  EC50 (Corynespora cassiicola; mycelial growth; PSA medium; 20 °C): 0.35 µg/mL
COc1cc2c(cc1OC)[C@@H]1C(=O)c3ccc4c(c3O[C@@H]1CO2)C=CC(C)(C)O4  EC50 (human adenovirus C5; progeny virus production; A549; 72 h): 80 nM
O=C(NCc1nc(-c2ccc(C(F)(F)F)cc2)cs1)[C@H]1CCCN(C(=O)CO[C@H]2CCCNC2)C1  EC50 (Plasmodium falciparum; SYBR Green growth; asexual blood-stage parasites, 3D7; 72 h): 17 ± 8.4 nM
Cc1cnc(Nc2ccc(C(=O)N3CCC(N4CCCC4)CC3)cc2)nc1-c1ccc(Cl)s1  EC50 (Plasmodium berghei; liver stage parasite load, luciferase; HepG2, ANKA; 44 h post-infection): 2400 nM
COCC(=O)N1CCC[C@H](C(=O)NCc2nc(-c3cccc(C)c3)cs2)C1  EC50 (Plasmodium falciparum; SYBR Green growth; asexual blood-stage parasites, 3D7; 72 h): > 5000 nM
CCCCCCCCCCCCC/C=C/[C@@H](O)[C@@H](N)COP(=O)(O)O  log2 fold change (binding, MIDAS equilibrium dialysis LC-MS; A2AR-BRIL thermostabilized; concentration not given; reference: no-protein control): -0.186
COCC(=O)N1CCC[C@H](C(=O)NCc2nc(-c3ccc(C)cc3)cs2)C1  EC50 (Plasmodium falciparum; SYBR Green growth; asexual blood-stage parasites, 3D7; 72 h): 24 ± 2.1 nM
CC1(C)c2nc(-c3ccc(F)cc3)c(Nc3ccc(F)cc3)n2CCN1C(=O)CN  EC50 (Plasmodium berghei; checkerboard model fit; HepG2 spheroids): 371 nM

For quick reference, copied from above:
COc1cc2c(cc1OC)[C@@H]1C(=O)c3ccc4c(c3O[C@@H]1CO2)C=CC(C)(C)O4  EC50 (human adenovirus C5; progeny virus production; A549; 72 h): 80 nM
O=C(NCc1nc(-c2ccc(C(F)(F)F)cc2)cs1)[C@H]1CCCN(C(=O)CO[C@H]2CCCNC2)C1  EC50 (Plasmodium falciparum; SYBR Green growth; asexual blood-stage parasites, 3D7; 72 h): 17 ± 8.4 nM
